Results collected from several papers.
Each line is one published result; not all experiments were run side by side. Values joined by “and” are separate records of one study, mostly repeats; a detail may differ. ± marks the error that the study gave.
Cell line: OVCAR-5

Compound = CN1CCN(c2ccc3[nH]c(-c4ccc5[nH]c(-c6ccc(C(F)(F)F)cc6)nc5c4)nc3c2)CC1; assay = SRB; conditions = 10 µM, 48 h; endpoint = growth percent; result = 110%
Compound = CSc1nc(-c2ccc(Cl)cc2)c2c(NC(=O)c3ccccc3)nnc-2[nH]1; assay = SRB; conditions = 10 µM, NCI60 single-dose screen; how to read = relative to: untreated; endpoint = cell growth; result = 109%
Compound = CCCCN1CCN(c2ccc3[nH]c(-c4ccc5[nH]c(-c6ccc(OCC)cc6)nc5c4)nc3c2)CC1; assay = SRB; conditions = 10 µM, 48 h; endpoint = growth percent; result = 135%
Compound = S=C([S][Au-][P+](CCCCCC[P+]([Au-][S]C(=S)n1cccn1)(c1ccccc1)c1ccccc1)(c1ccccc1)c1ccccc1)n1cccn1; assay = cell growth, NCI-60 screen; conditions = ovarian cancer; endpoint = log10 TGI; result = -4.54
Compound = C#C[C@@]1(O)[C@@H](CO)O[C@@H](n2cc(Cl)c3c(N)ncnc32)[C@@H]1O; assay = SRB; conditions = NCI-60 screen; endpoint = TGI; result = 70.8 µM and > 100 µM
Compound = O=C(Nc1nnc2n3c(Cc4ccccc4)n[nH]c3nc(-c3ccc(Cl)cc3)c1-2)c1ccccc1; assay = SRB; conditions = 10 µM, NCI60 single-dose screen; how to read = relative to: untreated; endpoint = cell growth; result = 122%
Compound = CCCN1CCN(c2ccc3[nH]c(-c4ccc5[nH]c(-c6cc(OC)c(OC)c(OC)c6)nc5c4)nc3c2)CC1; assay = SRB; conditions = 10 µM, 48 h; endpoint = growth percent; result = 116%
Compound = Cc1cc(=O)[nH]n1-c1nc(-c2ccc(Cl)cc2)c2c(NC(=O)c3ccccc3)nnc-2[nH]1; assay = SRB; conditions = 10 µM, NCI60 single-dose screen; how to read = relative to: untreated; endpoint = cell growth; result = 98.3%
Compound = CCCN1CCN(c2ccc3[nH]c(-c4ccc5[nH]c(-c6ccc(OCC)c(OCC)c6)nc5c4)nc3c2)CC1; assay = SRB; conditions = 10 µM, 48 h; endpoint = growth percent; result = -15.2%
Compound = Cn1cncc1C1=CN(c2ncnc3[nH]cnc23)CCS1; conditions = ovarian cancer; endpoint = GI50; result = 46.8 µM
Compound = CCCN1CCN(c2ccc3[nH]c(-c4ccc5[nH]c(-c6ccc(C(F)(F)F)cc6)nc5c4)nc3c2)CC1; assay = SRB; conditions = 10 µM, 48 h; endpoint = growth percent; result = -24.9%
Compound = C#C[C@@]1(O)[C@@H](CO)O[C@@H](n2cc(F)c3c(N)ncnc32)[C@@H]1O; assay = SRB; conditions = NCI-60 screen; endpoint = TGI; result = > 100 µM
Compound = Cc1n[nH]c2nc(-c3ccc(Cl)cc3)c3c(NC(=O)c4ccccc4)nnc-3n12; assay = SRB; conditions = 10 µM, NCI60 single-dose screen; how to read = relative to: untreated; endpoint = cell growth; result = 124%
Compound = CCCN1CCN(c2ccc3nc(-c4ccc5nc(-c6cc(OC)ccc6OC)[nH]c5c4)[nH]c3c2)CC1; assay = SRB; conditions = 10 µM, 48 h; endpoint = growth percent; result = 113%
Compound = Cc1cc(C)n(-c2nc(-c3ccc(Cl)cc3)c3c(NC(=O)c4ccccc4)nnc-3[nH]2)n1; assay = SRB; conditions = 10 µM, NCI60 single-dose screen; how to read = relative to: untreated; endpoint = cell growth; result = 120%
Compound = C#C[C@@]1(O)[C@@H](CO)O[C@@H](n2cc(I)c3c(N)ncnc32)[C@@H]1O; assay = SRB; conditions = NCI-60 screen; endpoint = TGI; result = > 100 µM
Compound = NNc1nc(-c2ccc(Cl)cc2)c2c(NC(=O)c3ccccc3)nnc-2[nH]1; assay = SRB; conditions = 10 µM, NCI60 single-dose screen; how to read = relative to: untreated; endpoint = cell growth; result = 104%
Compound = O=C1NC(=NCc2cccs2)S/C1=C\c1ccc2ncccc2c1; assay = MTS; conditions = NCI60 panel; endpoint = IC50; result = > 10 µM
Compound = CCCCS(=N)(=O)CCC(N)C(=O)O (stereo not shown); assay = LC-ESI-MS/MS, measured: glutathione; conditions = 200 µM, 12 h; endpoint = cellular GSH concentration; result = 6.6 ± 0.1 µM

Repeated from above:
Compound = Cc1n[nH]c2nc(-c3ccc(Cl)cc3)c3c(NC(=O)c4ccccc4)nnc-3n12; assay = SRB; conditions = 10 µM, NCI60 single-dose screen; how to read = relative to: untreated; endpoint = cell growth; result = 124%
